Results gathered from unrelated publications.
Every numbered part comes from another study and shows a few of its results, in no order. Several values in a cell are separate wells, animals, samples, runs or records.
Chain of UniProt P35462 (whole entry, looked up): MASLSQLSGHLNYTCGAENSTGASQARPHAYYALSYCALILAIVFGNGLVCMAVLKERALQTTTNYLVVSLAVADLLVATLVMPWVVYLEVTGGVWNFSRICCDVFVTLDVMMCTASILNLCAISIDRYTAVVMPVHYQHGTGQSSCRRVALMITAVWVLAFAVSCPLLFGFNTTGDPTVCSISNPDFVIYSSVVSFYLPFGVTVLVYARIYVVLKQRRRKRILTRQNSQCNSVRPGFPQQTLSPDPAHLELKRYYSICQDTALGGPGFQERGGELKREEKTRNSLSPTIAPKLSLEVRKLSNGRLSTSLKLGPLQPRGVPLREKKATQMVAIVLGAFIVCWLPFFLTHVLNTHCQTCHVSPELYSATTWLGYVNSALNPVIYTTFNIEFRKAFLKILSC
Chain of UniProt P08913 (whole entry, looked up): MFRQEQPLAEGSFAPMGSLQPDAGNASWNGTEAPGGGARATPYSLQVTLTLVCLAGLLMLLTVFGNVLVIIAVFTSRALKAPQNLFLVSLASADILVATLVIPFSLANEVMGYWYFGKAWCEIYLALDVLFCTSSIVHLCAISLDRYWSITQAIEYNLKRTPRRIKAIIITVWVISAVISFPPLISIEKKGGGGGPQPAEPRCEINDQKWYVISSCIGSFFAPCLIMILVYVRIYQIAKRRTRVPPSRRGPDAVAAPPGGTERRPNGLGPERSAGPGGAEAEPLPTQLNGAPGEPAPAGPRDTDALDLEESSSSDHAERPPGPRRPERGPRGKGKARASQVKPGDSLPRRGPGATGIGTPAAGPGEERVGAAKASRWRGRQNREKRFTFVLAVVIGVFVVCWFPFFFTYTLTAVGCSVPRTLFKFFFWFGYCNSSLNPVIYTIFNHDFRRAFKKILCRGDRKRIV
Chain of UniProt P14416 (whole entry, looked up): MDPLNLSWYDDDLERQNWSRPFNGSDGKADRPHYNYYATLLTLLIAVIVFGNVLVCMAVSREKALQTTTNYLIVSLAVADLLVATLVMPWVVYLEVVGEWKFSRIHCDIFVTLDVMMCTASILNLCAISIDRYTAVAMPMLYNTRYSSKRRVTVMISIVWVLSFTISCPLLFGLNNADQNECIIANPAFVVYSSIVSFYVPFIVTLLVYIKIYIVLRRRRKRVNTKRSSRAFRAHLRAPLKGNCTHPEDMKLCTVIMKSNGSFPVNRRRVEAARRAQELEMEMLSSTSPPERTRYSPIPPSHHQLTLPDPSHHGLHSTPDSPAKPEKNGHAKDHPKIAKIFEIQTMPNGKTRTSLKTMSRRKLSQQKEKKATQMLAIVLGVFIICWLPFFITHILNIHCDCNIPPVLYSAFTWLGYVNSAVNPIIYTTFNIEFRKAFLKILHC
Chain of UniProt Q9Y5N1 (whole entry, looked up): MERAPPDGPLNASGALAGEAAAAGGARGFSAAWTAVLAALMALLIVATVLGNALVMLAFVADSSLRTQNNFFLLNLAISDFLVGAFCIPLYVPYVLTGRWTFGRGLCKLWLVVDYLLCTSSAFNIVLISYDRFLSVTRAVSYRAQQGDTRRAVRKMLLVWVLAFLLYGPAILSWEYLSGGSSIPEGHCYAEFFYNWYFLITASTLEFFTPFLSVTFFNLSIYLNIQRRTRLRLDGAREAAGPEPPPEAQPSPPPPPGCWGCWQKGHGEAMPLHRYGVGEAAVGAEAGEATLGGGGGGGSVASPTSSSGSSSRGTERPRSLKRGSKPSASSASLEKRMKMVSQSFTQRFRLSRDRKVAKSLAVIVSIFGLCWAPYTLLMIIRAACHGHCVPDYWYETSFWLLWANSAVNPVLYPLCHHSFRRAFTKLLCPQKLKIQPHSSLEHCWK
Chain of UniProt P21917 (whole entry, looked up): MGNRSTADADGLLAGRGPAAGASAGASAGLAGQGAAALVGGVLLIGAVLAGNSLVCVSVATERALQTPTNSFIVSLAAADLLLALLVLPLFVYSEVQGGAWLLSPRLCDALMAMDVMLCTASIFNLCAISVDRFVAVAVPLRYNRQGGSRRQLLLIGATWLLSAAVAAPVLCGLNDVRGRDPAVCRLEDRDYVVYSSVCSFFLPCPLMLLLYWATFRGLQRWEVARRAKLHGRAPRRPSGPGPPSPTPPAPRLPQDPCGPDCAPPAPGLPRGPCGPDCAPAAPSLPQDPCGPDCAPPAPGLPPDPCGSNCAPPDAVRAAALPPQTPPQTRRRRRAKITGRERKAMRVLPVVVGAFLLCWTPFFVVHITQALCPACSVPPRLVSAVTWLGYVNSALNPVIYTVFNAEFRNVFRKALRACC
Chain of UniProt Q99720 (whole entry, looked up): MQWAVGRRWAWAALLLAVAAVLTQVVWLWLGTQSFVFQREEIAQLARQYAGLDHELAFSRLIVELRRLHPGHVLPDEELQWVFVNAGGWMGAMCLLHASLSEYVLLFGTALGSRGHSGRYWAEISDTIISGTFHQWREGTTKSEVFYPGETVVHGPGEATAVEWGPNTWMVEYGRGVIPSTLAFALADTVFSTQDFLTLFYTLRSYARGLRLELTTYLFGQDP
Chain of UniProt Q5BJF2 (whole entry, looked up): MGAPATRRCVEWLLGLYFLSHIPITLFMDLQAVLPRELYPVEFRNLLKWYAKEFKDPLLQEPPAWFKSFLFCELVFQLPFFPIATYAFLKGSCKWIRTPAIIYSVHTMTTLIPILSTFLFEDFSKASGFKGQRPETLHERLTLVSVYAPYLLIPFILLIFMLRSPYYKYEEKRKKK
Chain of UniProt P25100 (whole entry, looked up): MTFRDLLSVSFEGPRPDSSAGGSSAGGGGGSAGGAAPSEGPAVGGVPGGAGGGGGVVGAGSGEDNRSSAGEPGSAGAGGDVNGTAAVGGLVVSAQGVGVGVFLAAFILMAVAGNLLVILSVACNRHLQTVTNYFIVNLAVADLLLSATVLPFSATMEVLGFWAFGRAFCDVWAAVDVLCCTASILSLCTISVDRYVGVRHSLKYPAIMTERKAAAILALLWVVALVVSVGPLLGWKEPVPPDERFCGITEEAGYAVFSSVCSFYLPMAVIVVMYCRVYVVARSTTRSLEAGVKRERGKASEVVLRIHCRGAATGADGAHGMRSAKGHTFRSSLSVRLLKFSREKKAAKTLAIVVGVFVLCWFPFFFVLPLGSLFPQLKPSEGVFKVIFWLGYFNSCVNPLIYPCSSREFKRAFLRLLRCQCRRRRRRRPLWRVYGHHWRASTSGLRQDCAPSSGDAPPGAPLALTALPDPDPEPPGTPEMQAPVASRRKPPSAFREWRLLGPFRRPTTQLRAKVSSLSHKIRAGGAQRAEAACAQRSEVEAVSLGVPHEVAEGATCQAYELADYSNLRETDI

Series 1 — effect on: cell-free assay; tested at: 10 µM; quantity: inhibition
Compound: C[C@@H](NC(=O)Nc1cc2[nH]ncc2c(CO)n1)c1ccccc1
Alpha-2A adrenergic receptor (ADRA2A, Homo sapiens, UniProt P08913): 9.2%
D(3) dopamine receptor (DRD3, Homo sapiens, UniProt P35462): -2.24%
D(2) dopamine receptor (DRD2, Homo sapiens, UniProt P14416): -13.1%
Alpha-1D adrenergic receptor (ADRA1D, Homo sapiens, UniProt P25100): -15.1%
Sigma non-opioid intracellular receptor 1 (SIGMAR1, Homo sapiens, UniProt Q99720): -27.5%
Sigma intracellular receptor 2 (TMEM97, Homo sapiens, UniProt Q5BJF2): -10.1%
Histamine H3 receptor (HRH3, Homo sapiens, UniProt Q9Y5N1): 7.46%
D(4) dopamine receptor (DRD4, Homo sapiens, UniProt P21917): -1%

Series 2 — Compound: CCOc1ccc(Nc2c3c(nc4ccccc24)CCC3)cc1; organism: Leishmania donovani; effect on: parasite killing; strain: DD8; quantity: inhibition
promastigotes; 66.66 µM, 96 h: 100%
intracellular amastigotes; 80 µM, 48 h: 100%
intracellular amastigotes; 40 µM, 72 h: 100%
promastigotes; 6.66 µM, 48 h: 80% and 69% and 81%
promastigotes; 33.33 µM, 24 h: 98% and 99%

Series 3 — species: mouse; medium: microsomes or S9; tested at: 2 µM; time: 0.5 h; quantity: remaining compound
CN(Cc1cccc2cnccc12)c1cnccn1: 2.28%
CCc1ccc2ncc3c(-c4ccc(F)cc4)n[nH]c3c2c1: 28.7%
CS(=O)(=O)N1N=C(c2cccs2)CC1c1ccc2nccnc2c1 (stereo not drawn): 22.7%

Series 4 — effect on: enzyme activity; action: inhibitor; tested at: 0.5 µM; baseline: control; quantity: remaining activity
Target: Casein kinase II subunit alpha (CSNK2A1, Homo sapiens, UniProt P68400)
Chain of UniProt P68400 (whole entry, looked up): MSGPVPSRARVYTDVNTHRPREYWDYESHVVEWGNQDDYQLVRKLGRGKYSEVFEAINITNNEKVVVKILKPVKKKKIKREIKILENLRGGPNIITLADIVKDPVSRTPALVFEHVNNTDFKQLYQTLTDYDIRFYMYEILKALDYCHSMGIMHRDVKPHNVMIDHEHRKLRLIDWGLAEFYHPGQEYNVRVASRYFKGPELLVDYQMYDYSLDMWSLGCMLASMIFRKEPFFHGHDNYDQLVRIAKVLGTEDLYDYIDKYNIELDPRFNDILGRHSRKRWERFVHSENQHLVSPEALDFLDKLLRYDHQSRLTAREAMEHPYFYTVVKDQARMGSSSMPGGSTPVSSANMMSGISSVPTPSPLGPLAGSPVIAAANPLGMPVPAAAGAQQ
CN(C)c1ccc(C=C2C(=O)Nc3ccccc32)cc1: 89.7%
O=S(=O)(c1cccc2cnccc12)N1CCCNCC1: 94.9%
Nc1[nH]nc2nc3ccccc3nc12: 87.6%
O=C(CCCc1ccc(-c2ccccc2F)cc1)Nc1ccc(O)cc1: 89.4%
O=C(O)c1ccc2c3c1cccc3c(=O)n1c3ccccc3nc21: 28.3%
COc1cc2ncnc(Nc3ccc(F)c(Cl)c3)c2cc1OCCCN1CCOCC1: 114%
OCC(O)CCON=C1C(c2c(O)[nH]c3ccccc23)=Nc2ccccc21 (stereo not drawn): 57.6%
O=c1c2ccccc2[nH]c(=S)n1CCN1CCC(=C(c2ccc(F)cc2)c2ccc(F)cc2)CC1: 97.9%
COc1cc2nccc(Oc3ccc(NC(=S)NC(=O)c4ccccc4C)cc3)c2cc1OC: 98.9%
Oc1ccc(-c2nc(-c3ccncc3)c(-c3ccc(F)cc3)[nH]2)cc1: 92.4%
Cc1ccc(Nc2nccc(N(C)c3ccc4c(C)n(C)nc4c3)n2)cc1S(N)(=O)=O: 114%
Cc1cccc(-c2[nH]c(C(C)(C)C)nc2-c2ccc3c(c2)OCO3)n1: 98%
O=C1NC(=O)C(c2cn(CCCn3ccnc3)c3ccccc23)=C1Nc1ccccc1: 100%
Cc1ccc(NC(=O)c2ccc(CN3CCN(C)CC3)cc2)cc1Nc1nc(-c2cccnc2)cs1: 99.2%

Excerpt of the above (series 4):
Cc1ccc(Nc2nccc(N(C)c3ccc4c(C)n(C)nc4c3)n2)cc1S(N)(=O)=O: 114%
O=C(O)c1ccc2c3c1cccc3c(=O)n1c3ccccc3nc21: 28.3%
O=C(CCCc1ccc(-c2ccccc2F)cc1)Nc1ccc(O)cc1: 89.4%
Cc1ccc(NC(=O)c2ccc(CN3CCN(C)CC3)cc2)cc1Nc1nc(-c2cccnc2)cs1: 99.2%
